Measurements collected from several papers.
Protocols differ between the studies behind these lines. Several values in a cell are separate wells, animals, samples, runs or records. Numbers after ± are the reported error.

For `CC(C)[C@H](NC(=O)CNC(=O)[C@H](CCC(N)=O)NC(=O)[C@H](C)N)C(=O)O`, the t1/2 was under 0.2 h (human, endotoxaemia, plasma; intravenous, lower dose groups, estimate).
For `COc1cc(N(C)CCN(C)C)c(NC(=O)CCSCC(N)C(=O)O)cc1Nc1nccc(-c2cn(C3CC3)c3ccccc23)n1` (stereo not shown), “share of radioactivity” read 1.94% (radio-HPLC; human, feces; dose not given, 48 to 96 h, sample holds 20.06% dose; reference: sample radioactivity).
`Cc1ccc(-c2ccc(-c3cc4sccc4o3)cn2)nc1` has a fluorescence lifetime of 1.3 ns (TCSPC; MeCN).
For `CN(C)c1cc(CN2CCCCC2)c(O)c2c1C[C@H]1C[C@H]3[C@H](N(C)C)C(O)=C(C(N)=O)C(=O)[C@@]3(O)C(O)=C1C2=O`, the AUC was 19500 ng·h/mL (cynomolgus monkey, plasma; intravenous, 5 mg/kg).
`CNC(=O)N[C@]1(C)CCC[C@@]2(C)C3CC[C@@]4(C)C[C@]3(CCC21)CC4=O` (single isomer, unassigned) gave a measured concentration of 1.61 ± 0.15 ng/mL (processed rat plasma; 1.5 ng/mL, 24 h, room temperature, autosampler stability).
`O=C([O-])CN1CCN(CC(=O)[O-])CCN(CC(=O)NCC2CCC(C(=O)NC(Cc3ccc4ccccc4c3)C(=O)NCCCCC(NC(=O)NC(CCC(=O)O)C(=O)O)C(=O)O)CC2)CCN(CC(=O)[O-])CC1.[44Sc+3]` (stereo not shown) has a residence time of 0.06 h (PET/CT dosimetry; human patients, spleen; mean of 4 patients).
`COc1cc(-c2nc3ccccc3s2)cc(CN2CCN(CC(=O)OC(C)C)CCN(CC(=O)OC(C)C)CC2)c1O` has a pKa4 of 12 (UV-Vis pH titration; 25 °C, ionic strength 0.1 M NaCl).
For `COc1c2c(cc3oc(CO)cc(=O)c13)O[C@H](C(C)(C)O)C2`, the degradation was under 20% (rat liver homogenate 30%; 15 min, 37 °C).
The pKa4 of `O=C(O)CN1Cc2cccc(n2)CN(CC(=O)O)Cc2cccc(n2)C1` is reported as 8.18 (UV-vis spectrophotometric titration, measured: HL/L- equilibrium; MeOH/water with NaCl; 50 µM, room temperature, NaCl 0.1 M, MeOH ≤20% v/v).
For `CCOc1ccc2c(c1)C(C)=CC(C)(C)N2c1cc(OCC)cc2c1NC(C)(C)C=C2C`, the residue concentration was 8.2 ± 3 ng/g (LC-MS/MS; piglets, liver; oral, 50 mg/kg feed of ethoxyquin, 42 days, after glucuronidase).
`COc1ccc(-c2csc(N/N=C(\C)c3cc(O)cc(O)c3)n2)cc1` — result for “bench-top stability change”: 9.07% and 6.2% (LC-MS/MS; rat plasma; 1000 ng/mL, 5 h, 25 °C).
With `CCCCCC(O)C=CC1OC2OC(C1CC=CCCCC(=O)O)C2(F)F` (stereo not shown) the hydrolysis half-life was 3.5 h (50 mM HCl/KCl buffer with DMSO; concentration not given, pH 1.80).
`C=CCn1c2ccc([N+](=O)[O-])cc2c(=O)n1Cc1ccccc1` has a selectivity index of 2 (Leishmania amazonensis; promastigotes, MHOM/BR/77/LTB0016; reference: CC50 macrophages over IC50 promastigotes).
`NCC(=O)N1CCC[C@H]1C(=O)N1C[C@H](O)C[C@H]1C(=O)O` has a pKa3 of 8.42 (potentiometric titration; water; 25 °C, 0.15 mol/dm3 NaCl).
Under APD90 change, `CCOc1c(C(C)(C)O)sc2cnc(Nc3ccc(N4CCC(N5CC6(COC6)C5)CC4)cc3OC)nc12` is recorded as “no effect” (microelectrode; male New Zealand rabbit, isolated Purkinje fibres; 30 µM, pacing 3 Hz).
The plasma histamine of `CCCC[C@H](NC(C)=O)C(=O)N[C@H]1CC(=O)NCCCC[C@@H](C(=O)N[C@@H](C(=O)N2CCC[C@@H]2C(N)=O)C(C)C)NC(=O)[C@H](Cc2c[nH]c3ccccc23)NC(=O)[C@H](CCCN=C(N)N)NC(=O)[C@@H](Cc2ccc3ccccc3c2)NC(=O)[C@@H]2CCCN2C1=O` is reported as 17.9 ng/mL (healthy dogs, plasma; subcutaneous, 2.25 mg/kg per day, day 28, 4 h post-dose, median).
The haemolysis of `C=CC(=C)CC[C@]1(C)[C@H](C)CC[C@@]23C(=C[C@H](OC(=O)C(C)C)C[C@@H]12)[C@@H](OC(C)=O)O[C@H]3OC(C)=O` is reported as 3.5% (haemolysis; 100 µM).
The onset temperature of `C=C1C[C@@]23CC[C@H]4[C@@](C)(CCC[C@@]4(C)C(=O)O[C@@H]4O[C@H](CO)[C@@H](O)[C@H](O)[C@H]4O)[C@@H]2CC[C@]1(O[C@@H]1O[C@H](CO[C@H]2O[C@H](CO)[C@@H](O)[C@H](O)[C@H]2O)[C@@H](O)[C@H](O)[C@H]1O[C@@H]1O[C@H](CO)[C@@H](O)[C@H](O)[C@H]1O)C3` is reported as 280 to 290 °C (thermogravimetric analysis; second mass loss stage).
With `OCc1cn(Cc2ccc(-c3noc(-c4ccc(OCC[18F])c(C(F)(F)F)c4)n3)cc2)nn1` the tissue uptake was 1.96 ± 0.07 %ID/g (female Lewis rat, lung; intravenous, 30 min).
For `CC(C)c1cnc(-c2cc(Cl)ccc2F)cc1Nc1ccncc1C(=O)NC(CO)CO`, “treatment-related adverse events” read 16.7% (measured: Nausea; solid tumour patients; oral, dose not given, phase I monotherapy).
With `C=C(c1cc(F)c(C(=O)O)c(F)c1)c1cc2c(cc1C)C(C)(C)CCC2(C)C` the blood triglycerides was 221 ± 99.6 mg/dL (Sprague-Dawley rat, male; oral, 100 mg/kg, 9 h, sesame oil vehicle).
`COc1ccc(-c2cc(=O)c3c(O)cc(O[C@@H]4O[C@H](CO[C@@H]5O[C@@H](C)[C@H](O)[C@@H](O)[C@H]5O)[C@@H](O)[C@H](O)[C@H]4O)cc3o2)cc1` gave a measured concentration of 2931 ± 17.8 ng/mL (short-term stability; rat plasma; 8 h, room temperature, high QC level).
`Cn1c(=O)oc2ccc(-c3ccc(CC(C#N)NC(=O)C4CNCCCO4)c(F)c3)cc21` (stereo not shown) — result for “treatment-related adverse event incidence”: 3.3% (measured: macule; human volunteers; oral, dose not given).
`C[C@H](CN(C)Cc1ccccc1)NC(=O)c1ccc(-c2noc(C(F)(F)[18F])n2)cc1` gave a brain uptake of 4.77 ± 0.24 %ID/cc (microPET; mouse; 2 min after injection).
`CCCCCCCC(=O)OC[C@H](NC(=O)[C@H](CO)NC(=O)CN)C(=O)N[C@@H](Cc1ccccc1)C(=O)N[C@@H](CC(C)C)C(=O)N[C@@H](CO)C(=O)N1CCC[C@H]1C(=O)N[C@@H](CCC(=O)O)C(=O)N[C@@H](Cc1cnc[nH]1)C(=O)N[C@@H](CCC(N)=O)C(=O)N[C@@H](CCCNC(=N)N)C(=O)N[C@H](C(=O)N[C@@H](CCC(N)=O)C(=O)N[C@@H](CCC(N)=O)C(=O)N[C@@H](CCCNC(=N)N)C(=O)N[C@@H](CCCCN)C(=O)N[C@@H](CCC(=O)O)C(=O)N[C@@H](CO)C(=O)N[C@@H](CCCCN)C(=O)N[C@@H](CCCCN)C(=O)N1CCC[C@H]1C(=O)N1CCC[C@H]1C(=O)N[C@@H](C)C(=O)N[C@@H](CCCCN)C(=O)N[C@@H](CC(C)C)C(=O)N[C@@H](CCC(N)=O)C(=O)N1CCC[C@H]1C(=O)N[C@@H](CCCNC(=N)N)C(=O)O)C(C)C` gave a hunger score of 5 (patients with chronic HFrEF; iv infusion, 0.1 µg/kg/min, end of 120 min infusion, scale 1-10, median; direction not given).
With `CCCCCCCCCCCCCCOc1c(O)cc(C(=O)O[C@@H]2Cc3c(O)cc(O)cc3O[C@@H]2c2cc(O)c(O)c(O)c2)cc1O` the degradation was 20.5 ± 0.93% (UV-Vis; PBS; 0.02 mg/mL, 5 h, pH 7.4).
For `COC(=O)C(c1ccccc1Cl)N1CCC(SCC(=O)c2cccc(OC)c2)C(=CC(=O)O)C1` (stereo not shown), the measured concentration was 49.6 ± 7.7 ng/mL (LC-MS/MS; processed plasma extract; 50 ng/mL, 8 h, room temperature).
The AUC(0-last) ratio of `Cc1ccc(OCC(=O)O)cc1` is reported as 2.5 (male Sprague-Dawley rat, plasma; intravenous, 1.0 mg/kg of parent drug; reference: compound over parent drug).
For `COc1ccc([C@@H]2CC(=O)c3c(O)cc(O[C@@H]4O[C@H](CO[C@@H]5O[C@@H](C)[C@H](O)[C@@H](O)[C@H]5O)[C@@H](O)[C@H](O)[C@H]4O)cc3O2)cc1O`, the measured concentration was 17.1 ± 0.38 ng/mL (rat plasma; 15.62 ng/mL, 7 days, -80 °C, long-term storage).
`COc1cc(CNC(=O)C[C@H](C)CCC=C(C)C)ccc1OCc1cn(-c2ccc(C#N)cc2)nn1` gave a growth percent of 60% (OVCAR-8 ovarian cancer cells; SRB; 10 µM, 48 h).
Under “metabolite peak area”, `Cc1cc(C(=O)N[C@@H](CO)CC(C)C)ccc1CO` is recorded as 19.1% (LC-MS; Sprague-Dawley rats, pooled sexes, plasma; oral, 100 mg/kg of parent drug, 1 h; reference: total metabolite peak area).

A few entries again:
The plasma histamine of `CCCC[C@H](NC(C)=O)C(=O)N[C@H]1CC(=O)NCCCC[C@@H](C(=O)N[C@@H](C(=O)N2CCC[C@@H]2C(N)=O)C(C)C)NC(=O)[C@H](Cc2c[nH]c3ccccc23)NC(=O)[C@H](CCCN=C(N)N)NC(=O)[C@@H](Cc2ccc3ccccc3c2)NC(=O)[C@@H]2CCCN2C1=O` is reported as 17.9 ng/mL (healthy dogs, plasma; subcutaneous, 2.25 mg/kg per day, day 28, 4 h post-dose, median).
The haemolysis of `C=CC(=C)CC[C@]1(C)[C@H](C)CC[C@@]23C(=C[C@H](OC(=O)C(C)C)C[C@@H]12)[C@@H](OC(C)=O)O[C@H]3OC(C)=O` is reported as 3.5% (haemolysis; 100 µM).
The onset temperature of `C=C1C[C@@]23CC[C@H]4[C@@](C)(CCC[C@@]4(C)C(=O)O[C@@H]4O[C@H](CO)[C@@H](O)[C@H](O)[C@H]4O)[C@@H]2CC[C@]1(O[C@@H]1O[C@H](CO[C@H]2O[C@H](CO)[C@@H](O)[C@H](O)[C@H]2O)[C@@H](O)[C@H](O)[C@H]1O[C@@H]1O[C@H](CO)[C@@H](O)[C@H](O)[C@H]1O)C3` is reported as 280 to 290 °C (thermogravimetric analysis; second mass loss stage).
With `OCc1cn(Cc2ccc(-c3noc(-c4ccc(OCC[18F])c(C(F)(F)F)c4)n3)cc2)nn1` the tissue uptake was 1.96 ± 0.07 %ID/g (female Lewis rat, lung; intravenous, 30 min).
